Assay results pooled from the literature.
Lines come from different studies, so protocols differ. Numbers after ± are the reported error.
CDA: Cytidine deaminase (CDA, Homo sapiens, UniProt P32320)
UniProt P32320, sequence (whole entry, looked up): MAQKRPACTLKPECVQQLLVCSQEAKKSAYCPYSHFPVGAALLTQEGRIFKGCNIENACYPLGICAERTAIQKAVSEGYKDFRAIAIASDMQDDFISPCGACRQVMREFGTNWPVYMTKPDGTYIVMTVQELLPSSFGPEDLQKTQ
DNA polymerase III PolC-type: DNA polymerase III PolC-type (Bacillus subtilis, UniProt P13267)
UniProt P13267, sequence (whole entry, looked up): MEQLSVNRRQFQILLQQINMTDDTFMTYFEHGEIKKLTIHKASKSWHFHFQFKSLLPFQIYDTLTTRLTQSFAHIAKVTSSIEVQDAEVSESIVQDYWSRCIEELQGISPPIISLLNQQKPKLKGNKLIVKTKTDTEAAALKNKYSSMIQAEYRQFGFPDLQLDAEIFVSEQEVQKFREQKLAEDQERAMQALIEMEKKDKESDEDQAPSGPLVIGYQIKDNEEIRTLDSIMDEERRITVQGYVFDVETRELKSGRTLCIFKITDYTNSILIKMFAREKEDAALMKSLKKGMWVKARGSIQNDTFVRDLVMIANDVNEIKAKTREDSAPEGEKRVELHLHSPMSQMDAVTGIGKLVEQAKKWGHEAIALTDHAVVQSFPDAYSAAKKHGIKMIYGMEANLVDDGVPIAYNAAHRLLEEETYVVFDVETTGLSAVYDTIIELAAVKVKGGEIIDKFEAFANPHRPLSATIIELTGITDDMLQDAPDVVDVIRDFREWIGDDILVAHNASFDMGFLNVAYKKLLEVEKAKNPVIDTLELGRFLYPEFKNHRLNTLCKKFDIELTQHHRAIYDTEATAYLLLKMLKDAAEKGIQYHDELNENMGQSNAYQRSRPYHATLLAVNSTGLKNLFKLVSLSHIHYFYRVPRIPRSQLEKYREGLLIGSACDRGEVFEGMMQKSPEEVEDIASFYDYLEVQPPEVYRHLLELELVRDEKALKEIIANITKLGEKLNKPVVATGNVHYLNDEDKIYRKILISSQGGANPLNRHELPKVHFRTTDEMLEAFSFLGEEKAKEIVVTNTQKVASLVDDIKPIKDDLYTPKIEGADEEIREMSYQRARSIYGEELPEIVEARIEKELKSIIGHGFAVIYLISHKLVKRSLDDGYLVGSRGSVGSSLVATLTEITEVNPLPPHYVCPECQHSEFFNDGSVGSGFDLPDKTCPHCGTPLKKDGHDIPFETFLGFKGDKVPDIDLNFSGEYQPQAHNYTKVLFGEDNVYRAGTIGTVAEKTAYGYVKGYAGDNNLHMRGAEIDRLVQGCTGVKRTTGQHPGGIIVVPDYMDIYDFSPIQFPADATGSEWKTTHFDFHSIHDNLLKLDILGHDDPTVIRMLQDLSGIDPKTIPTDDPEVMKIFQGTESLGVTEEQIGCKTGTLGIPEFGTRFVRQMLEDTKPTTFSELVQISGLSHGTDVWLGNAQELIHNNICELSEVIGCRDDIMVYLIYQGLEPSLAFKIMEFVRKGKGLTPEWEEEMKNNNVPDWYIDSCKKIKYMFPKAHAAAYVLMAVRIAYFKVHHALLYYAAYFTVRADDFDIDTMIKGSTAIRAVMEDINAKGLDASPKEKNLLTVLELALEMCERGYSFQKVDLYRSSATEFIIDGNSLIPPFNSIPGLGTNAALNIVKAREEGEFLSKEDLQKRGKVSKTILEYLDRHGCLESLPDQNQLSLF
UniProt P52790, sequence (whole entry, unmodified, looked up): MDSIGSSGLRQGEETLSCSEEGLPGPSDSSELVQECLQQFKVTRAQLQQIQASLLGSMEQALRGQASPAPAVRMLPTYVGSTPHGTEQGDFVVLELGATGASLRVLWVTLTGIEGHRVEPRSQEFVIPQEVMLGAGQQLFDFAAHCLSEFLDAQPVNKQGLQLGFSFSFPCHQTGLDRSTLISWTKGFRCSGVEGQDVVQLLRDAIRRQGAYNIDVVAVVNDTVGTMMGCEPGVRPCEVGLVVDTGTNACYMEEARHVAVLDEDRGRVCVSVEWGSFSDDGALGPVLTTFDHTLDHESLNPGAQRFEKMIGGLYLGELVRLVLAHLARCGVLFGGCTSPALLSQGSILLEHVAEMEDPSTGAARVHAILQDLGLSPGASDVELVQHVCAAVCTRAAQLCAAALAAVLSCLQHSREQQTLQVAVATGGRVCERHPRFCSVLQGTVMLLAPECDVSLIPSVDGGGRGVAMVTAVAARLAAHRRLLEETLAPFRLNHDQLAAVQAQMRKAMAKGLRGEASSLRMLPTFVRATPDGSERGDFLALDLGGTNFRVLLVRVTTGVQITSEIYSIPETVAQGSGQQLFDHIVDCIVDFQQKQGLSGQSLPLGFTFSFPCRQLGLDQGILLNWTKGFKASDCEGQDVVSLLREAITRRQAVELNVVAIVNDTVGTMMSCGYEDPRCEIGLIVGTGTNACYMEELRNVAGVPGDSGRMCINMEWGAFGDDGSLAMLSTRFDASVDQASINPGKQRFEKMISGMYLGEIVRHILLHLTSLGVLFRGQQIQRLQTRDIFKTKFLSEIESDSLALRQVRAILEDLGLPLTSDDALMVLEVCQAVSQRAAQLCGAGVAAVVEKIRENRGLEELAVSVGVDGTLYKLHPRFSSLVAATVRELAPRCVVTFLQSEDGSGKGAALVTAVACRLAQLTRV
UniProt P30872, sequence (whole entry, looked up): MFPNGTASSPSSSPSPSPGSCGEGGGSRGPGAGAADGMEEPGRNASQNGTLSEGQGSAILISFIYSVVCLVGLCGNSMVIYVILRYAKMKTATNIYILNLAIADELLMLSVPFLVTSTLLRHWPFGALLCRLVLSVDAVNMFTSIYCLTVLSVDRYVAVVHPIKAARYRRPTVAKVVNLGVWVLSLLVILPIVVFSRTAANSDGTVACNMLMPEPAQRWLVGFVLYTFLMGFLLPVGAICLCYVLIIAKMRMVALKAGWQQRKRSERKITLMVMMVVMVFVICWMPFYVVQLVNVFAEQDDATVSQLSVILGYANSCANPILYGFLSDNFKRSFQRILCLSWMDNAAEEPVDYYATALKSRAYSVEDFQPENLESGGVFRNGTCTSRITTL
UniProt P25100, sequence (whole entry, looked up): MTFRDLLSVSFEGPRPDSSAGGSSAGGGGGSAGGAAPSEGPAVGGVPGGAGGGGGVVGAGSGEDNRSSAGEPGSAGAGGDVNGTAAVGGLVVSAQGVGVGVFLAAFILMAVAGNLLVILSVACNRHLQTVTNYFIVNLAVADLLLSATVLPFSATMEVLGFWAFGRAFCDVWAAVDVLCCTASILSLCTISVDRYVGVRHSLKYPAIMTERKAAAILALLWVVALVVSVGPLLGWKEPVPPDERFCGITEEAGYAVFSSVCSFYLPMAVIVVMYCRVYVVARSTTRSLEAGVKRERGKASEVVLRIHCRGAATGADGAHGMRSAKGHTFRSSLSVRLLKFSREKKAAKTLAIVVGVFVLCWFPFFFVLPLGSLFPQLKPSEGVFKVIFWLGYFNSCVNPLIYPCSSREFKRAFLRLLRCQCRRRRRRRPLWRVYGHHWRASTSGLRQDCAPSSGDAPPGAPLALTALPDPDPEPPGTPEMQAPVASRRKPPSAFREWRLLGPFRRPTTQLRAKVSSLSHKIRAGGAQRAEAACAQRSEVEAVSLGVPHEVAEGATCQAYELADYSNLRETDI
UniProt P11229, sequence (whole entry, looked up): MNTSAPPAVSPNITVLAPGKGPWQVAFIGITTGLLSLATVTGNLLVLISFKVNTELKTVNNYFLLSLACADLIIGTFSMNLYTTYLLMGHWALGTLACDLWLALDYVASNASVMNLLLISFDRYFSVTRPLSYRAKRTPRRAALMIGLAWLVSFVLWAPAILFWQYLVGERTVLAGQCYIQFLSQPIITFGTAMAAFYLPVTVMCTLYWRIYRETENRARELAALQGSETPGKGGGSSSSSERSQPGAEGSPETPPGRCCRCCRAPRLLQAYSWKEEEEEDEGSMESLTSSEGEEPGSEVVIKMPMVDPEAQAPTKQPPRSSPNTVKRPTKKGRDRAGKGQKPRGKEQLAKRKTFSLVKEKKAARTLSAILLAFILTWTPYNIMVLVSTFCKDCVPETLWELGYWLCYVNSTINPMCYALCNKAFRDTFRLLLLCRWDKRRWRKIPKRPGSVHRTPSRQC
UniProt P50613, sequence (whole entry, looked up): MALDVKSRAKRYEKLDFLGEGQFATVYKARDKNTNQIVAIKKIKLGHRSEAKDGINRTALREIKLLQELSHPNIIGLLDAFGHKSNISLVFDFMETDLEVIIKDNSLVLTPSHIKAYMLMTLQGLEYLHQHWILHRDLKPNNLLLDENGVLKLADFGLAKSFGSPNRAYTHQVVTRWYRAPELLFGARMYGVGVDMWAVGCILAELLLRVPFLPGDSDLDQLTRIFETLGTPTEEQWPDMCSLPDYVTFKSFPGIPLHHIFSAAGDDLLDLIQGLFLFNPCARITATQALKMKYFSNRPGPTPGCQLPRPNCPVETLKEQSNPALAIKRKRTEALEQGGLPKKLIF

NC(=O)c1ccc[n+]([C@@H]2O[C@H](COP(=O)(O)OP(=O)(O)OC[C@H]3O[C@@H](n4cnc5c(N)ncnc54)[C@H](OP(=O)(O)O)[C@@H]3O)[C@@H](O)[C@H]2O)c1 — Ki (chnB (Rhodococcus sp. HI-31, UniProt C0STX7)): 165 µM
CNC(=O)[C@@]12C[C@@H]1[C@@H](n1cnc3c(NC)nc(C#Cc4cnccn4)nc31)[C@H](O)[C@@H]2O — Ki (ADRA1D (Homo sapiens, UniProt P25100); radioligand binding (PDSP)): 1 to 10 µM
FC1CCN(c2ccc(-c3ccc4sc(Br)cc4n3)cn2)CC1 — Ki (Alpha-synuclein, aggregates (SNCA, Homo sapiens, UniProt P37840); Parkinson's disease brain homogenate; added: 1 nM [3H]asyn-44): 0.0307 µM
Nc1ncc([C@@H]2O[C@H](CO)[C@@H](O)[C@H]2O)c(=O)[nH]1 — Ki (CDA; inhibitor; pH 7.5): 28 µM
OC[C@H]1OC(O)[C@H](O)[C@@H](O)[C@@H]1O (stereo partly drawn) — Ki (Hexokinase-3 (HK3, Homo sapiens, UniProt P52790, A499V); substrate inhibition; mutant A499V, complete substrate inhibition model, added: ATP 20 mM): 12000 ± 1000 µM
O=c1[nH]c(NCc2ccc(Cl)c(Cl)c2)nc2ncn(CCCCN3CCOCC3)c12 — Ki (DNA polymerase III PolC-type; enzyme activity, inhibitor; truncated, dGTP omitted, 4% DMSO): 0.14 µM
CNC(=O)[C@@]12C[C@@H]1[C@@H](n1cnc3c(NC)nc(C#C[c-]4cccc4)nc31)[C@H](O)[C@@H]2O.[Fe+2].c1cc[cH-]c1 — Ki (CHRM1 (Homo sapiens, UniProt P11229); radioligand binding (PDSP)): 1.1 µM
CCc1cc(Nc2nc3ncn(CCCCCO)c3c(=O)[nH]2)ccc1C — Ki (DNA polymerase III PolC-type; enzyme activity, inhibitor; truncated, dGTP omitted, 4% DMSO): 0.74 µM
COCc1cc(C(=O)Nc2cc([C@H]3CC[C@@H](OC(=O)NC(C)C)C3)[nH]n2)n(C)n1 — Ki (CDK7 (Homo sapiens, UniProt P50613); kinase activity, inhibitor, fluorescence): 0.622 µM
O=C1NCCCN1C1OC(CO)C(O)C1O (stereo not drawn) — Ki (CDA; inhibitor; pH 7.5): 440 µM
O=c1[nH]c(NCc2ccc(Cl)c(Cl)c2)nc2ncn(CCCCCN3CCOCC3)c12 — Ki (DNA polymerase III PolC-type; enzyme activity, inhibitor; truncated, dGTP omitted, 4% DMSO): 0.27 µM
O=c1n(CCCN2CCN(c3cccc(Cl)c3)CC2)nc2ccccn12 — Ki (SSTR1 (Homo sapiens, UniProt P30872)): > 10 µM

For quick reference, copied from above:
NC(=O)c1ccc[n+]([C@@H]2O[C@H](COP(=O)(O)OP(=O)(O)OC[C@H]3O[C@@H](n4cnc5c(N)ncnc54)[C@H](OP(=O)(O)O)[C@@H]3O)[C@@H](O)[C@H]2O)c1 — Ki (chnB (Rhodococcus sp. HI-31, UniProt C0STX7)): 165 µM
CNC(=O)[C@@]12C[C@@H]1[C@@H](n1cnc3c(NC)nc(C#Cc4cnccn4)nc31)[C@H](O)[C@@H]2O — Ki (ADRA1D (Homo sapiens, UniProt P25100); radioligand binding (PDSP)): 1 to 10 µM
